Measurements of several laboratories.
Each numbered part is a random draw from the data of one study; scales do not carry over between parts.
UniProt P20794, sequence (whole entry, looked up): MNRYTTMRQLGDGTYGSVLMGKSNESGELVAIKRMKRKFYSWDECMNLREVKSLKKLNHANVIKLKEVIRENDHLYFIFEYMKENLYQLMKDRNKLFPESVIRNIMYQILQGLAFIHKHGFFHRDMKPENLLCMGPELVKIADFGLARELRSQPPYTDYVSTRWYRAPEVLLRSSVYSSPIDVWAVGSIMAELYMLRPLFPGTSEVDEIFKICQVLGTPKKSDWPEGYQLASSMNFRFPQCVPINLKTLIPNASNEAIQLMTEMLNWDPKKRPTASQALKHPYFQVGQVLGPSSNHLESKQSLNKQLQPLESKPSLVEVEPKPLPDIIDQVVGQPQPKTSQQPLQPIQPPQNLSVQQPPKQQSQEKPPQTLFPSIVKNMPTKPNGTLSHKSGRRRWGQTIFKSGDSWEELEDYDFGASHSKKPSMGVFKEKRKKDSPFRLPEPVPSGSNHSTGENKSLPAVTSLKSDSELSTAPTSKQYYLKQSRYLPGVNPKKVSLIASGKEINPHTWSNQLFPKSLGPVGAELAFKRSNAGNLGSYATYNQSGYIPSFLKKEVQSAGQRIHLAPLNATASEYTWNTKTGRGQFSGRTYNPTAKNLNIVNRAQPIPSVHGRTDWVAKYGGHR
UniProt Q13555, sequence (whole entry, looked up): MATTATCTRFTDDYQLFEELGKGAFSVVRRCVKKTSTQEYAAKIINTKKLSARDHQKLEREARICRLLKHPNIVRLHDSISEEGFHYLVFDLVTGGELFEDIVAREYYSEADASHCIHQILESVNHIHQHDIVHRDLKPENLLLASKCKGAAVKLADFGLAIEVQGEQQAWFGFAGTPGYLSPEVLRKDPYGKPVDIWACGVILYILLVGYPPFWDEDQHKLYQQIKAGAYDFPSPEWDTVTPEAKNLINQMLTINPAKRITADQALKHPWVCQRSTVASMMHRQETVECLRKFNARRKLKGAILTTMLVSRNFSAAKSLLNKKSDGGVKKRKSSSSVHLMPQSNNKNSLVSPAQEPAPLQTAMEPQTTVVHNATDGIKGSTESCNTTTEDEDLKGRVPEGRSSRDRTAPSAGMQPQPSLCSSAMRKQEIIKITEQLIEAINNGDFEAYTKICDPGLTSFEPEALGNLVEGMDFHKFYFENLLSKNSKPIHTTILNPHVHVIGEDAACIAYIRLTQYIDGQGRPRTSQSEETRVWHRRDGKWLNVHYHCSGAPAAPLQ
UniProt Q02156, sequence (whole entry, looked up): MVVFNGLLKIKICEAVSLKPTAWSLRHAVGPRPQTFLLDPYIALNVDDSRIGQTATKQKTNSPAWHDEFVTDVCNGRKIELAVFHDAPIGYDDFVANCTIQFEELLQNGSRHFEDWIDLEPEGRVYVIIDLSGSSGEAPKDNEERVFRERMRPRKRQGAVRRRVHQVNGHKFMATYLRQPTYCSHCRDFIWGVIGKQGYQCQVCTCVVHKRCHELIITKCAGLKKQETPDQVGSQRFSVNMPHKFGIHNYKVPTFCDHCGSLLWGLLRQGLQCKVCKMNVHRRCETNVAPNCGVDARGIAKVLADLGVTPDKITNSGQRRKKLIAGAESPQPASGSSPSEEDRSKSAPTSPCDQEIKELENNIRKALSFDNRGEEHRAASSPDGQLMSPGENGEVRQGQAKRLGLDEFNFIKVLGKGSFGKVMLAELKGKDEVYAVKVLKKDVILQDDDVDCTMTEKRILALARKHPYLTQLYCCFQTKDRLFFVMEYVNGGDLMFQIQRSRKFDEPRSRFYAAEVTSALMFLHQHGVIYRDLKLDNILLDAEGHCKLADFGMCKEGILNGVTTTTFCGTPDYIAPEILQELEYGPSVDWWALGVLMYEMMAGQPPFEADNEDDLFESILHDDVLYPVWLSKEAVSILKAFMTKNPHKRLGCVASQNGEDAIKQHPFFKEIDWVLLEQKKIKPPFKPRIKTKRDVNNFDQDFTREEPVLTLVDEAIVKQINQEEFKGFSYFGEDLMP
UniProt O15075, sequence (whole entry, looked up): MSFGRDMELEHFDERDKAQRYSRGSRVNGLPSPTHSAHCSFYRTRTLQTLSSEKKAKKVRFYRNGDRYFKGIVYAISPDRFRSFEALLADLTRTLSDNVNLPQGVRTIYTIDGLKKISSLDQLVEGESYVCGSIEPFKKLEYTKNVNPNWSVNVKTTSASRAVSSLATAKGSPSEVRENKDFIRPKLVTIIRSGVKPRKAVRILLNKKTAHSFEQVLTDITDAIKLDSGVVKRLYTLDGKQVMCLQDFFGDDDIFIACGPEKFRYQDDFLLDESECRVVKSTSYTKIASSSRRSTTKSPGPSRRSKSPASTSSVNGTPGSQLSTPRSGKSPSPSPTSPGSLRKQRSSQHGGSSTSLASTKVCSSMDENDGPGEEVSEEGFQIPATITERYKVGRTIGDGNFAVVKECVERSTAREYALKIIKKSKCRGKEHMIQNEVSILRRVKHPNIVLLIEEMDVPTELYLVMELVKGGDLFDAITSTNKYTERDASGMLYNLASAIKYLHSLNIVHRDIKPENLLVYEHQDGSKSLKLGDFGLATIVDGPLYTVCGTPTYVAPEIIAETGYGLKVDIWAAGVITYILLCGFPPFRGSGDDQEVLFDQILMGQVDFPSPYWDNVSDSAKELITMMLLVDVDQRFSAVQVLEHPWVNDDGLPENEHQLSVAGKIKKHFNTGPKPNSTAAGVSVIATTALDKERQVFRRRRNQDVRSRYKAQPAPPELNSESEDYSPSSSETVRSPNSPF
UniProt Q32MK0, sequence (whole entry, looked up): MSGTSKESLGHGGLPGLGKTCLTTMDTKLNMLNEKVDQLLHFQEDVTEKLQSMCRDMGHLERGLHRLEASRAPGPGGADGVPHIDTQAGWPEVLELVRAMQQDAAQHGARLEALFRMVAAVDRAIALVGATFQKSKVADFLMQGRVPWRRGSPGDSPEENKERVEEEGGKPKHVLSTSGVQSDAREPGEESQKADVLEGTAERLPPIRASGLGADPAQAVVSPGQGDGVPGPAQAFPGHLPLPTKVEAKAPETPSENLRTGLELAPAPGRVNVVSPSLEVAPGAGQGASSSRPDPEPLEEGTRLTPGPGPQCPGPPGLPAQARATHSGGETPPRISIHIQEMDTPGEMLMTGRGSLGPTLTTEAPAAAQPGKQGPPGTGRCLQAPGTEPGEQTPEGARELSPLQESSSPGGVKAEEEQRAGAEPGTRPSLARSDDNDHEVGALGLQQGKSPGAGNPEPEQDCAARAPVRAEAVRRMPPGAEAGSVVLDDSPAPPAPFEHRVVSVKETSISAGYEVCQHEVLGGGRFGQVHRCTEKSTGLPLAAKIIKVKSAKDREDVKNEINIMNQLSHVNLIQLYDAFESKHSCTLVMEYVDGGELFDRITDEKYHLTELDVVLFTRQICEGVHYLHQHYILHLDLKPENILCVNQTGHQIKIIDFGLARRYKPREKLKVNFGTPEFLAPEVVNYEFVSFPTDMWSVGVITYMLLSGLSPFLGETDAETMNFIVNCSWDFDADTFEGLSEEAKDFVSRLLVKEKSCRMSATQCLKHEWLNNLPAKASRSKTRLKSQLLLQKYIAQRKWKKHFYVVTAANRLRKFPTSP
UniProt Q16288, sequence (whole entry, looked up): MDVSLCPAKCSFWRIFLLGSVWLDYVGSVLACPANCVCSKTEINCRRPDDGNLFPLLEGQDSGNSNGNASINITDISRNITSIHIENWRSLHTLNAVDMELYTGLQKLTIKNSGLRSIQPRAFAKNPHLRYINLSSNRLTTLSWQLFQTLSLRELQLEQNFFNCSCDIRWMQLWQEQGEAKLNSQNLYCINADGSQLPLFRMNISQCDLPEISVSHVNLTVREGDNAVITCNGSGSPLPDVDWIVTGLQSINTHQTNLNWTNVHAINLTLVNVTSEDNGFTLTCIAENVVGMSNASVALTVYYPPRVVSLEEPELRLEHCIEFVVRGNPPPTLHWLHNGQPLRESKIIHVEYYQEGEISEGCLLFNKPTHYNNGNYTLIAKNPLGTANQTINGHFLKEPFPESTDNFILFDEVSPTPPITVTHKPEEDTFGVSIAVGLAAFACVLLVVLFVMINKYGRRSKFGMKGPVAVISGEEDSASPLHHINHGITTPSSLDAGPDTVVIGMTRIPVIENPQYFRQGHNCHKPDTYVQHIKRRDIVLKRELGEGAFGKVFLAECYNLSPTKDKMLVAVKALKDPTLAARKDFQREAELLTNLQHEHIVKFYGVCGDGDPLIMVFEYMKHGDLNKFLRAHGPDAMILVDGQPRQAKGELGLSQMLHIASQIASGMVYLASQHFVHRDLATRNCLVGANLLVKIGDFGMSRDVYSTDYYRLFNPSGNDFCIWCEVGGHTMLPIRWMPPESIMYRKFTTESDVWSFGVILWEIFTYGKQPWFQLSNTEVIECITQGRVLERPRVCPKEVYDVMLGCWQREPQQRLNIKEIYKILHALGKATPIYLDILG
UniProt Q8IU85, sequence (whole entry, looked up): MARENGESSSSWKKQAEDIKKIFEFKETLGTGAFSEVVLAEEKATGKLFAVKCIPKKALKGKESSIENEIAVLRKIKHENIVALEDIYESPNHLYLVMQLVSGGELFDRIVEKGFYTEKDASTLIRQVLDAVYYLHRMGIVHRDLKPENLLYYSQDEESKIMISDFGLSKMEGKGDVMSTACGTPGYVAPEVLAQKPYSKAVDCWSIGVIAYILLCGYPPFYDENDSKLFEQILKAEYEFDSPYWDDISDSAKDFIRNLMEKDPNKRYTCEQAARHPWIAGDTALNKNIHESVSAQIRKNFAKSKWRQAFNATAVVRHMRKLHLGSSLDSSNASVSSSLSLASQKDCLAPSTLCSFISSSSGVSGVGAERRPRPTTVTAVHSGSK

Block 1
Target: Protein max, full length (MAX, Homo sapiens, UniProt P61244-2, residues 1-151)
Method: protein-binding microarray
Form: double-stranded DNA, one strand shown
Medium: in vitro
Tested at: not given
Setting: k-mer, scored over probes, only values ≥0.25
Reading: higher = stronger binding
| Sequence | E-score |
| --- | --- |
| AACCCATG | 0.307 |
| ACGCGACT | 0.295 |
| CGTGTATA | 0.277 |
| ATGCACCC | 0.255 |
| ACATGTAG | 0.309 |
| ACCCGTGA | 0.257 |
| ATGCGGCG | 0.301 |
| ACGCGGCG | 0.363 |

Block 2
Compound: O=C1NC(c2ccccn2)Sc2ccccc21 (centres unmarked)
Effect on: cell-free assay
Method: competition with immobilised ligand
Tested at: 1 µM
| target | remaining binding [%] |
| --- | --- |
| Serine/threonine-protein kinase DCLK1 (DCLK1, Homo sapiens, UniProt O15075) | 77 |
| Serine/threonine-protein kinase RIO1 (RIOK1, Homo sapiens, UniProt Q9BRS2) | 80 |
| Protein kinase C epsilon type (PRKCE, Homo sapiens, UniProt Q02156) | 96 |
| Tyrosine-protein kinase ZAP-70 (ZAP70, Homo sapiens, UniProt P43403) | 90 |
| Rhodopsin kinase GRK1 (GRK1, Homo sapiens, UniProt Q15835) | 81 |
| Calcium/calmodulin-dependent protein kinase type 1D (CAMK1D, Homo sapiens, UniProt Q8IU85) | 82 |
| Mitogen-activated protein kinase kinase kinase 12 (MAP3K12, Homo sapiens, UniProt Q12852) | 100 |
| Insulin receptor (INSR, Homo sapiens, UniProt P06213) | 88 |
| Myosin light chain kinase (MYLK3, Homo sapiens, UniProt Q32MK0) | 100 |
| Phosphatidylinositol 4,5-bisphosphate 3-kinase catalytic subunit alpha isoform (PIK3CA, Homo sapiens, UniProt P42336, I800L) | 80 |
| Activin receptor type-1-like (ACVRL1, Homo sapiens, UniProt P37023) | 70 |
| Serine/threonine-protein kinase MAK (MAK, Homo sapiens, UniProt P20794) | 92 |
| NT-3 growth factor receptor (NTRK3, Homo sapiens, UniProt Q16288) | 81 |
| Calcium/calmodulin-dependent protein kinase type II subunit gamma (CAMK2G, Homo sapiens, UniProt Q13555) | 98 |
| TGF-beta receptor type-1 (TGFBR1, Homo sapiens, UniProt P36897) | 100 |

Block 3
Target: Centromere-binding protein 1, full length, His-tagged (CBF1, Saccharomyces cerevisiae, UniProt P17106, residues 1-351)
UniProt P17106, sequence (whole entry, looked up): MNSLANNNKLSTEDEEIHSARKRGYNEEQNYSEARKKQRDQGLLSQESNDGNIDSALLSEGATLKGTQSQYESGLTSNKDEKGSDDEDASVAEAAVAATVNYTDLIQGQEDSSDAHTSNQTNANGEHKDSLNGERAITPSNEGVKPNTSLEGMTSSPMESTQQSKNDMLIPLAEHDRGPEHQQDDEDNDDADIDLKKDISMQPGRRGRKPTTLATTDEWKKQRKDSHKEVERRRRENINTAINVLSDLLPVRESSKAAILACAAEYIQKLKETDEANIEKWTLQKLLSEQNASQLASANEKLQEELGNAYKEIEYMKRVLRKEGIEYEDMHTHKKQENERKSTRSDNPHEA
Method: competition protein-binding microarray
Form: double-stranded DNA, one strand shown
Medium: in vitro
Tested at: 2 µM
Setting: whole 60-bp probe, lowest competitor level
Added: Pho4 competitor, 0.05 µM
Reading: higher = stronger binding
All sequences stand within: … GTCTTGATTCGCTTGACGCTGCTG
| Sequence | fluorescence intensity [a.u.] |
| --- | --- |
| TGCGCAACAACTTGAGCCGTGGGTGTATGTCTAGAA | 49.6 |
| CTTCTGTAAATTTTTCACGTGGTCTGACGCGCCCCG | 1230 |
| GCCACTTTGTAGCGTCACAATGACTGGGTTTCCCAA | 68.7 |
| AAGTACGTCCTCTTGGCCGTGATGGCTGTTGTATTT | 68.2 |
| ATTCCTGTTCCGGGACAAGTGCTACAACTGACCTTA | 54.4 |
| TCACTAAATTAGCTGCATGTGCGTTAAATCCACCAA | 157 |
| ATTATACAACAAACACACGTTAAGAGACGCAAACGG | 78.9 |
| GAAACAGAACTCGCTGATGTGATATTCACCATTCCA | 76.5 |

Block 4
Species: human
Medium: microsomes or S9
Tested at: 2 µM
Time: 0.5 h
| Structure (SMILES) | remaining compound |
| --- | --- |
| CC(=O)Nc1ccc(Nc2ncnc3c2cnn3-c2cccc(C)c2)cc1 | 80.7% |
| CCOC(=O)CCCOc1nc(C(C)C)c2c(c1C#N)CCCC2 | > 100% |
| COCC(C)N(Cc1cc(OC)cc(OC)c1)C(=O)CCCC(C)=O (centres unmarked) | 21.4% |
| Cc1cn[nH]c1C1(C)CCCN(S(=O)(=O)c2cnn(C)c2)C1 (centres unmarked) | 1.3% |

Some of these lines once more (block 2):
| target | remaining binding [%] |
| --- | --- |
| Activin receptor type-1-like (ACVRL1, Homo sapiens, UniProt P37023) | 70 |
| Serine/threonine-protein kinase MAK (MAK, Homo sapiens, UniProt P20794) | 92 |
| NT-3 growth factor receptor (NTRK3, Homo sapiens, UniProt Q16288) | 81 |
| Calcium/calmodulin-dependent protein kinase type II subunit gamma (CAMK2G, Homo sapiens, UniProt Q13555) | 98 |
| TGF-beta receptor type-1 (TGFBR1, Homo sapiens, UniProt P36897) | 100 |
